Experimental data of several laboratories.
Every numbered part comes from another study and shows a few of its results, in no order. Positions count from the first letter of the parent shown.

Block 1 — target: JUND, bZIP domain (human); technique: DHFR protein complementation; medium: yeast; relative to: wild-type JUN-FOS pair; reading: higher = stronger binding; quantity: binding fitness
Notes: single substitutions, most at no-binding floor
Starting sequence: JUN, bZIP domain (human); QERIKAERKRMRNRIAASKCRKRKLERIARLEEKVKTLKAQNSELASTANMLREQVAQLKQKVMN
L52R: -1.46 natural log
V35P: -1.44 natural log
V35T: -1.37 natural log
L52W: -1.33 natural log
V35R: -1.4 natural log
V56S: -1.42 natural log
R30P: -1.41 natural log
Q55S: -1.29 natural log

Block 2 — technique: aptamer microarray, sandwich; form: DNA with 2'F-ANA; medium: in vitro; tested at: 200 nM; with: Cy3 exosite-II aptamer, 400 nM; reading: higher = stronger binding; quantity: mean fluorescence intensity; sequence: GGTTGGTGTGGTTGG
Target: Prothrombin, mature alpha-thrombin (F2, Homo sapiens, UniProt P00734)
Notes: whole 15-mer aptamer, many near background
2'F-ANA at 3 4 5 8 11 13 14: 49.3 a.u.
2'F-ANA at 5 6 7 9 10: 59.3 a.u.
2'F-ANA at 2 3 4 5 6 7 8 9 10 11 13 15: 51.9 a.u.
2'F-ANA at 1 2 3 5 6 8 9 12 13 15: 119 a.u.
2'F-ANA at 1 3 5 6 11: 54.4 a.u.
2'F-ANA at 3 4 7 8 10 13: 266 a.u.
2'F-ANA at 1 2 4 5 8 9 10 11 13 14: 49.1 a.u.
2'F-ANA at 1 5 6 8 9 10 12 13: 46.5 a.u.

Block 3 — target: CCNB1, cyclin fold, Cln2 fusion (human); technique: yeast growth competition, sequencing; medium: yeast; notes: strong parent motif; relative to: not given; reading: higher = stronger binding; quantity: normalised enrichment score
Starting sequence: viral docking peptide; TSVRRALFTGGSD; partner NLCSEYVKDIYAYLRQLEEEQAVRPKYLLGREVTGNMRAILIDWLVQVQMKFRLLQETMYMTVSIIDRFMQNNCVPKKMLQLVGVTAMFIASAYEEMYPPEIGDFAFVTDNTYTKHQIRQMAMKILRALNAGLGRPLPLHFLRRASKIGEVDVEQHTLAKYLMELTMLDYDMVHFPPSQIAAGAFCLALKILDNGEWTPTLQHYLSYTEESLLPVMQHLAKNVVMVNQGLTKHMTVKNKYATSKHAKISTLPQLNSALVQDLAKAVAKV
TSVRRALFTQGSD [G10Q]: 2.01
TSVRRALFTGGMD [S12M]: 2.16
ASVRRALFTGGSD [T1A]: 2.68
TSVRRALFNGGSD [T9N]: 1.43
TSVRAAAFTGGSD [R5A L7A]: 0.04
TSVRRALFTGGQD [S12Q]: 2.39
TSVRRAIFTGGSD [L7I]: 0.106
TSWRRALFTGGSD [V3W]: 0.206
TSVRRALFLGGSD [T9L]: 1.91
TSVRKALFTGGSD [R5K]: 1.81
TSVRRALFTIGSD [G10I]: 1.57
TSVRRALFTGESD [G11E]: 3.14
TSVRRAKFTGGSD [L7K]: 0.378
TSVRRALFTGKSD [G11K]: 1.45
TSVRRALFTGGGD [S12G]: 2.07
TSVRRLLFTGGSD [A6L]: 0.785
TSVRRALFGGGSD [T9G]: 1.66
TSVRRALFDGGSD [T9D]: 1.83
TSVRRALFTTGSD [G10T]: 2.25
TSVRWALFTGGSD [R5W]: 0.149
TSVRRALFTGCSD [G11C]: 2.37
TSVRRALWTGGSD [F8W]: 0.52
TSVRRAQFTGGSD [L7Q]: -0.0363
TSARRALFTGGSD [V3A]: 0.475
TWVRRALFTGGSD [S2W]: 0.487

Block 4 — target: UBE2D3 UBC core domain (UniProt P61077); technique: yeast two-hybrid; medium: yeast; notes: mostly zero background; relative to: not given; reading: higher = stronger interaction; quantity: lacZ reporter activity
B1: TRIM48 RING domain (UniProt Q8IWZ4); chain ISQVFQRELTCPICMNYFIDPVTIDCGHSFCRPCFYLNWQDIPILTQCFECIKTIQQRNLKT
B2: RNF24 RING domain (UniProt Q9Y225); chain KVKELNLHELCAVCLEDFKPRDELGICPCKHAFHRKCLIKWLEVRKVCPLCNMPVLQLAQLH
Construct (chain): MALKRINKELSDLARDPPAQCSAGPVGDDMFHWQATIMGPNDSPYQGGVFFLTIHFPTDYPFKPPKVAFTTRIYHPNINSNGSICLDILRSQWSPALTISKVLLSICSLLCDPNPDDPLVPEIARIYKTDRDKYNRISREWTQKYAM
KEQLEKHNDICAICYQDMKSAVITPCSHFFHAGCLKKWLYVQETCPLCHCHLKNSSQLP (RNF145 RING domain (UniProt Q96MT1)): 0
B1 (TRIM48 RING domain): 0
B2 (RNF24 RING domain): 0

Block 5 — technique: EMSA with sequencing; form: double-stranded DNA, one strand shown; medium: in vitro; tested at: 10 and 20 nM; relative to: negative control set to 0; reading: higher = stronger binding; quantity: normalised bound fraction
Target: Hepatocyte nuclear factor 3-alpha (Foxa1, Mus musculus, UniProt P35582, residues 1-468, full length assumed)
Notes: whole designed probe, mean of two concentrations, ends assumed
Shared flanks, not repeated: GTGAGCGGTGCCCATTGATGGGGAAC … TTTCACTGGGATCGTGGGGAC
Target sequence (chain): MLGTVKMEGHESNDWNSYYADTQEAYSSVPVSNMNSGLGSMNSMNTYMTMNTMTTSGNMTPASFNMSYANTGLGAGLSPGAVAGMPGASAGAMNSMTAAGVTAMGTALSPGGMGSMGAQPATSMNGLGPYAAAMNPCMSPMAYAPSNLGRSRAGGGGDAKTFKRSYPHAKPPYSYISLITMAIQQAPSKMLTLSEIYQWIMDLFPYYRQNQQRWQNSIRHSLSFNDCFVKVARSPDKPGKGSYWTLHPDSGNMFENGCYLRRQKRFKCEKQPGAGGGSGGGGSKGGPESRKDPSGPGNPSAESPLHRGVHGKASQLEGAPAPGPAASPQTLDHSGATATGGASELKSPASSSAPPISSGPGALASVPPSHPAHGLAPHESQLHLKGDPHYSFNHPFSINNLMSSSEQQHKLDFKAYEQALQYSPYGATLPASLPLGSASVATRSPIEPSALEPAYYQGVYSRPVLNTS
CTTGTTCTCATTGTGTGATGGAAAGCCTGTTGGGCTAAGAGTCTAGCAACCGGATTCTATCACTAAGTCTGTGCAAACCTGAATCTATTGCTTGTTTACATAATCTGTAAATGCAAGTGCTAATTACCAAGTGAATTCAGCTATAACACTCATTTCTACCACAATTTAGTAAGCCAACTCGACCCATCGCTCA: 0.42 ratio
ATCTTCCCCCTCTTCCTTGCCCCACCAGCTCACCTTCCCGGGTTATTTGCAGAAAAAAGAGCATACAGATGTAGCATTCGTTAACCCTCTTCTGGCGCAAACTGCTGTTTGCTCTGGATGAATCATGGTCCTTTGGCGACGCCAGGCTCCGGGAGAGCAAAGCACCGTGTCAGGGCCATGATCCGGGGTGGCC: 0.144 ratio
GACTTTTACACAGGCATCATGGGAGTAAGCCCAAGATATTTTCTCACACTTGATTCCAGGCATGTGGGGTTTGGTTTCTTGATCAAATATCTGTGTTTGCTCTGTTTACAAGTATCTGATGAGCAAAACCAACAGAGGTGCTCCAGACAGGCTGGCTGTGCTGATCCCTTGGAAAAGAATTAAACAAAACCCA: 0.237 ratio
TCAGGTCAGAGCAGGTGACCAGGGGTGACTCAGGATGGAGCAGGTGACCAGAGGAATAGAGGTGAACTACTGATTAGAACTGGTGGAAAAGGTTGTTTACTGAAACTAGAGGCGAGGAGAACGAGGAAGCTAGACTTTAGAGCGCAAAGAACCGAGCATACTGACATACTGATTCTTTGAAGAGAAATTTAGA: 0.0526 ratio
ATCTTCCCCCTCTTCCTTGCCCCACCAGCTCACCTTCCCGGGTTATTTGCAGATAGGAAAATAAATAAAGCCGGCATTCGTTAACGCAGTTCACGCGCATACTGCTGTTTGCTCTGCATCTAACATGGTCCTTACGCGACGCCAGGCTCCGGGAGAGCAAAGCACCGTGTCAGGCGCATGATCCGGGCTCGCC: 0.362 ratio

Block 6 — effect on: peptide-MHC binding; form: peptide; tested at: concentration not given; quantity: binding
Target: HLA class I histocompatibility antigen, A alpha chain, allele A*25:01 (Homo sapiens, UniProt P04439)
TMLVRQMTK: inactive
FLFDRLTNG: inactive
DETFVHSGF: inactive
RAIMTTWTV: inactive
AMYDPQTYY: inactive

A few entries again (block 1):
L52R: -1.46 natural log
V35P: -1.44 natural log
V35T: -1.37 natural log
L52W: -1.33 natural log
V35R: -1.4 natural log
V56S: -1.42 natural log
